Measured values of several laboratories.
A part holds a random share of what one study measured. Substitutions count along the parent as printed.

Sample 1
Target: CCNF, cyclin fold, Cln2 fusion (human)
Method: yeast growth competition, sequencing
Sample: yeast
Setting: strong parent motif
Relative to: not given
Direction: higher = stronger binding
Endpoint: normalised enrichment score
Starting sequence: CDC25A docking peptide (human); PPHRRRLLFACSP
H3A: 9.23
H3E: 7.8
F9N: 1.33
P13R: 5.94
L7M: 1.51
L7H: 1.34
A10T: 8.21
L7E: 0.625
P13H: 6.76
H3T: 8.94
H3F: 8.43
P1L: 7.09
C11G: 7.49
P2F: 6.69
P13C: 7.71
R6M: 7
C11T: 7.92
P1Q: 7.82
L7G: 0.919
P1Y: 8.41

Sample 2
Target: Sal-like protein 4, full length isoform A (SALL4, Homo sapiens, UniProt Q9UJQ4, residues 1-1053)
Sequence of UniProt Q9UJQ4 (whole entry, looked up): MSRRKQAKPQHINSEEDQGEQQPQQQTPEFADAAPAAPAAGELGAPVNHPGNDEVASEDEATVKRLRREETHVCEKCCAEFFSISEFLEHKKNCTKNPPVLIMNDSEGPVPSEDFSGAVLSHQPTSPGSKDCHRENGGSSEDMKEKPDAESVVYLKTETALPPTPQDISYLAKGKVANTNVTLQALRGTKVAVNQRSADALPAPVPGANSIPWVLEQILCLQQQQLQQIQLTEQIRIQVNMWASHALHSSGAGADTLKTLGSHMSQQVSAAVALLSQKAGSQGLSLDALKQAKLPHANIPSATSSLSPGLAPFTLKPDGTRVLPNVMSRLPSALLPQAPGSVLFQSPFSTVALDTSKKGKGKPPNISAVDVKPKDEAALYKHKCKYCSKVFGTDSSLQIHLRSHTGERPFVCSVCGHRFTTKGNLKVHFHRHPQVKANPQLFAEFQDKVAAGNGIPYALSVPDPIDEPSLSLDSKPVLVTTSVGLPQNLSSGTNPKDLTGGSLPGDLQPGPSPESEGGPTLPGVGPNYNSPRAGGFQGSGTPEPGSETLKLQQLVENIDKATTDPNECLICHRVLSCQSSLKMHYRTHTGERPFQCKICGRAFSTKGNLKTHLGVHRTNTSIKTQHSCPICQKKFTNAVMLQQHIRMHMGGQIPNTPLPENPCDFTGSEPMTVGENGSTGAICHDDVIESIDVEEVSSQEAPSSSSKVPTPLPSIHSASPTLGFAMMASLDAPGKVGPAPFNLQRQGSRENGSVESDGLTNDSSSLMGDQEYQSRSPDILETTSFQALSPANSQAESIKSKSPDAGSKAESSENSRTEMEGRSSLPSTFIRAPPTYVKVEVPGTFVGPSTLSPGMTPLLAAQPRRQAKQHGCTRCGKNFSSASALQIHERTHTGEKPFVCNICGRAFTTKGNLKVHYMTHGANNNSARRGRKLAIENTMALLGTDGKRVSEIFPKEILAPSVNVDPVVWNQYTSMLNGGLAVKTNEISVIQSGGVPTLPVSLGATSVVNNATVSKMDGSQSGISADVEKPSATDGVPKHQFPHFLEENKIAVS
Method: universal PBM
Form: double-stranded DNA, one strand shown
Sample: in vitro
Concentration: 600 nM
Setting: 8-mer, flanks averaged, mean of replicates
Direction: higher = stronger binding
Endpoint: E-score
CCAGCTAC: -0.158
AATTTTGT: 0.312
AGATTGTA: 0.175
AGAGTACG: -0.0413
CACAGGGG: -0.288
CAACCGAG: -0.144
CATTCACC: -0.00575
GCTCCACC: -0.295
CGCTAGCC: -0.317
CAAGCTCA: -0.167
TGTTGGAA: 0.203
AGCCTGAA: -0.0641
CACTTTTA: 0.19
GCAAGTCC: -0.238
AACTGACT: -0.0675
GGCGACAC: -0.307
GTCGCGAA: -0.125
AGGAGGTC: -0.244
CTTGTATA: 0.284
TCGGGAGA: -0.125
ACTAACAG: 0.162
GTCAACAC: 0.0313
TGCATCAA: 0.168

Sample 3
Target: Interferon regulatory factor 3, full length, phosphomimetic (IRF3, Homo sapiens, UniProt Q14653, residues 1-427, S386D/S396D/S398D/S402D/T404D/S405D)
Method: protein-binding microarray
Form: double-stranded DNA, one strand shown
Sample: in vitro
Concentration: 2540 nM top
Setting: 60-bp whole probe
Together with: salmon DNA 0.4 mg/ml
Relative to: random background probes
Direction: higher = stronger binding
Endpoint: fitted relative affinity
Shared flanks, not repeated: GCCTAGCAC … GTCTTGATTCGCTTGACGCTGCTG
Target sequence (chain): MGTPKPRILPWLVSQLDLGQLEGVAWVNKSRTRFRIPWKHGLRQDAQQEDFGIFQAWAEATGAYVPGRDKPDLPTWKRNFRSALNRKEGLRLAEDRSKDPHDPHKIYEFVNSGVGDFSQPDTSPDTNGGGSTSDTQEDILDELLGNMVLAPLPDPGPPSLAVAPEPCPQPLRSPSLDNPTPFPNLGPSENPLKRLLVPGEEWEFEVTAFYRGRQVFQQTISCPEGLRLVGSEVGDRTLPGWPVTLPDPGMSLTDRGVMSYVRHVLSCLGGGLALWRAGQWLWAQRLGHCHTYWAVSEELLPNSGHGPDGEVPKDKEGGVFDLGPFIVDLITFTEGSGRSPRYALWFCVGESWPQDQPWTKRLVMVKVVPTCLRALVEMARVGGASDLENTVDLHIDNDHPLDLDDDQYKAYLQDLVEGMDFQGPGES
GACGATCTCAGCTTCGAGACGTGCTAG: 0.358 z-score
CCAGTTTTGTGTGTGTGTTTGTGCTAG: 0.299 z-score
TCACCTCTCTTTCCAACACTGTGCTAG: 1.35 z-score
GCCGATTTCAGACTGGAGACGTGCTAG: 1.91 z-score
GTAGGTTCCCTTTTCCTTTAGTGCTAG: 7.39 z-score
TTACGACTGGGGACTGGGTTAGTGCTA: -0.987 z-score
TTAGGTCTCAGACTGGGTTAGTGCTAG: -0.153 z-score
TTAGGTATCGTCACTGGGTTAGTGCTA: -0.24 z-score
TTAGGTATTGGGTTTCGGTTAGTGCTA: 2.85 z-score
CTTTATGTACTCTCTCCATGTGTGCTA: 1.24 z-score
GACGGACTGCTTTTCCTAACGTGCTAG: 0.29 z-score
GACGGACTGGGACGGGGGACGTGCTAG: -0.334 z-score
GACGCTTCCAGTTTCGAGACGTGCTAG: 3 z-score
GACGGTATCCGTTTCCTGACGTGCTAG: 6.13 z-score
GACGGACTGCTCATCCTGACGTGCTAG: -0.322 z-score
TCATTTTCCTAATTGAAACTGTGCTAG: 6.19 z-score
GACGATTTCAGACTGGAAACGTGCTAG: 1.18 z-score
TCAGTCCTCCTGACTGGGACTGTGCTA: -0.0899 z-score
AGTCTCTTCTGGGACTCATGGTGCTAG: 0.363 z-score

Sample 4
Target: RING finger protein unkempt homolog, zinc fingers 1-6, SBP tag (UNK, Homo sapiens, UniProt Q9C0B0, residues 30-357)
Sequence of UniProt Q9C0B0 (30-357, looked up): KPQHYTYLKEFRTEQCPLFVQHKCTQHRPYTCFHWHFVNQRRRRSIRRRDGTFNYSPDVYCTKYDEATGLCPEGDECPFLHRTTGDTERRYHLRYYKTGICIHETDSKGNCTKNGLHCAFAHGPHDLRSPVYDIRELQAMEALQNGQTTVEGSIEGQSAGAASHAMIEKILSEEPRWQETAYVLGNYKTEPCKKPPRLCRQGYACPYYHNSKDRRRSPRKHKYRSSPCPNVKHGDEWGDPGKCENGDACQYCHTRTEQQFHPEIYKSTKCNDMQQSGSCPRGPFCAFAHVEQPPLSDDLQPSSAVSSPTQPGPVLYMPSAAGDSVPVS
Method: RNA Bind-n-Seq
Form: RNA
Sample: in vitro
Concentration: 100 nM
Setting: RNA with constant flanks, vertebrate orthologous sites, ends assumed
Relative to: input RNA pool
Direction: higher = stronger binding
Endpoint: bound/input enrichment
Shared flanks, not repeated: GGGAGUUCUACAGUCCGACGAUC … CAACAGAGGAUUGAGCAUCA
CUACUAUAAACAACUCAGGGCAGUAUUCUCGAUAUCCUUACAGUAACCUAAAUCAGGGAUUAGUUAACAAUACAGGGAUGAAUCAAAAUUUAGGCCUUACAAAUAAUACUUCAAUGAAUC: 1.79 ratio
GGAAAGCUACAGACCAGACUCUGAAAGCAGGAGCACGGGAUCCUGGUUGUCAUCAUCUUUGAGGAACAGAUGUACACCUCUCUUCUCCAGAAGAAGGAGAGAAGGAAGAGACGAGUCUGC: 0.461 ratio
GAGCUAAAGGAGUCAGCAUCUUUAUUUUUGUAUCAGAGAUAAAGGUUAUUUUGAAAUUAUUAGGAUUUUUACACAACUCUGAAAUCUGUUGCUUUUGUAAACCAAUUGUUUGAUCUUCAG: 0.543 ratio
UCAGUCUUCCUGUUAUGGUCAGCUUCAAAUCUACAGCAUUUAUGACAAAUGUAUUAUAUCUAGUUACGUUGAGUUUAAUAUUUUUUAUUAGCCUGUAAAUAAAUAAAGAUGGCAUCGUCC: 0.563 ratio
AGGGAUGGUCCCCAAUCCCACCUCUGUCUAUUCUGUAAACUACAACCUGUAAAUAACCUUUAGCAUUCCUAUUGUAACAAAAUUAAUUUUUAUGAAAUAAAUUAUAUUUCCUAGUCUAAU: 1.55 ratio
GUUGUGACCCGUUUAAUAUACACAAAAAGCUAGCCAAAAAGAAUCUGCAUGUAAUUGACUUAGAUGAUGCCACGUUUCUGAGUGCAAAGUUUGGAAGACAGCUGGUACCUGGUUGGAAGC: 0.638 ratio
CAGGGUGGGACCCGGGACCUACUGCUCAGUGGCCCGCUGGCCACCUCAGCUAAGCCACUUUAGGUCCAUUUUUUAUUUUAACAGUGCUCUUCCAUUCUGUGCGUAAGCCCGAGAUUUGGA: 0.889 ratio
GUUUUUUUAAUUUAUUUUUCUUUCCUUUUCUUUUUCGGGGGUAAAGUUUGCUCUACCAAAUAGUGAUCGUAACAAACUGAUCUGUUAUGGAUGUUGCUAUAGUGACAUGCAAUUAUAUAU: 2.55 ratio

Excerpt of the above (sample 1):
L7E: 0.625
L7H: 1.34
C11T: 7.92
C11G: 7.49
A10T: 8.21
L7G: 0.919
H3E: 7.8
H3F: 8.43
P1Q: 7.82
P13H: 6.76
